Published values from different studies.
Numbered parts are unrelated; each lists some results of a single study. Changes are numbered by the printed parent chain.

Sample 1 — technique: RNA Bind-n-Seq; molecule type: RNA; sample: in vitro; tested at: 200 nM; setting: whole 134-nt RNA, ends assumed; with: 150 mM LiCl; relative to: input library; reading: higher = stronger binding; all molecules: 7-deaza-guanosine replaces G
Target: Ras GTPase-activating protein-binding protein 1, full length (G3BP1, Homo sapiens, UniProt Q13283)
Chain of UniProt Q13283 (whole entry, looked up): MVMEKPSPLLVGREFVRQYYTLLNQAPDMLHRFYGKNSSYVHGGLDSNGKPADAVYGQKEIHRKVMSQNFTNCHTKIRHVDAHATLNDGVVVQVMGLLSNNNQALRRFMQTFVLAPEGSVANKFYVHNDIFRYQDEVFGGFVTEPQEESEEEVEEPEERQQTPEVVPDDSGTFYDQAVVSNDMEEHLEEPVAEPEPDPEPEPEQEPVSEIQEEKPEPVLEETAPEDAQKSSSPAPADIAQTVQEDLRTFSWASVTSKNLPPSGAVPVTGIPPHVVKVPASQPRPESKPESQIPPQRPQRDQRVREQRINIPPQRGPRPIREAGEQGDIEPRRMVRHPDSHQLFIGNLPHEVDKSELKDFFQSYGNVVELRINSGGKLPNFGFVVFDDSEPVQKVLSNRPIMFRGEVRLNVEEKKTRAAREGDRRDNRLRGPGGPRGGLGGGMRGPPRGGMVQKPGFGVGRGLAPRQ
All sequences stand within: GGGAGUUCUACAGUCCGACGAUC … UGGAAUUCUCGGGUGUCAAGG
Sequence	log2 enrichment
CACAGAUAACACGCACCCACACAGACACAGAGGGAAGGGGUUGGGAUGGGGACAGGGUGCACAGCAGGGCGGGGUAGGACCCCAGCCCCU	0.328
UCCCGACAUCUGUGGCCCUGGCACCAAGAAGGUUCAUGUCAUCUUCAACUACAAGGGCAAGAACGUGCUGAUCAACAAGGACAUCCGUUG	-1.11
AGUCCUGUGCUACACAUCGUAUGUACCGAAUCGGAAAAGGGAAAAGGGGAAAAGGGGAAAGUAUUAUGUUACGCCGUUCGGAUCUGCACU	-0.407
GUCCUGUGCUACACAUCGUAUGUACCGAAUCAAACCCCCAAACCCCCAAACCCCCAAAAAAGUAUUAUGUUACGCCGUUCGGAUCUGCAC	-0.421
UCAAGUCCUGUGCUACACAUCGUAUGUACCGAAUCGGAAAAAAAGGUUUGGAGGAAAGUAUUAUGUUACGCCGUUCGGAUCUGCACUUCC	-0.68
ACCAUGCAGGUGGGCAUCAAAGGGAAGUGGGGCAAGGGGGGGAUAGGGAGGGGGGUAACACUUUGGGAACAGGUGGUCCCAGGUCGUUUC	0.123

Sample 2 — technique: RNA Bind-n-Seq; molecule type: RNA; sample: in vitro; tested at: 365 nM; relative to: no-protein control; reading: higher = stronger binding
Target: RNA binding protein fox-1 homolog 2, RRM domain, GST-SBP tag (RBFOX2, Homo sapiens, UniProt O43251-10, residues 100-194)
Setting: natural RNA segment, single round, ends assumed
All sequences stand within: GGGAGUUCUACAGUCCGACGAUC … UGGAAUUCUCGGGUGCCAA
Construct (chain): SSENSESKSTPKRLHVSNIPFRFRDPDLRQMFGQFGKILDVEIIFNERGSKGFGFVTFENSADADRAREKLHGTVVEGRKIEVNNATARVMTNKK
Sequence	RBNS enrichment (R)
AAAACAUACUUAUCCUAAAGAGAUGGUGAGAUAUAACAUGCCUUAAAUUAUAUUAUAGAAUUUAAAUAACUAGCUUUCACAAUCAGUUUGUGUGUAAAAUGUCAUUUAAA	0.621
AGGACGUGGUGAUGUGAGGUGUGCCCACCUGGUGGCCCUUGCCAUGCAGUGUGAGGGCCCAAAGCUUAUCCUCAAAUAGUCCUGUUUGCCAGGCUCAGUUCCCACCCACA	0.942
UUUUCUGAUAAUUAUUUUUGCCUGUCAUCCCAAAAACGUAUUGACAUGCGUGUAUAUUACCUGUGAGUGAGAGUUCUUAGAAACUUGGCCAGAGAGGAUAAAGGGGAGAG	0.661
ACCUACUAAGCAGAGCAAGGCCUGGGUAUCAAACAGUUCUGUGUUAACAGUUCCUAAAUUCUAAGGUCCUUGAAUUUGAAGGAAAGACCUUUAGGCCAACUCUGUCUUGG	0.381
UCAUGUACAUAUGGUAUAGAAACCAUGGAGUUAGGCACUUCCUGGAUUUUUUUUUUAUGAGAAAAAUACUGUAUUUAAAAUGUAAAAUAAACUUUUAAAAAGCAGGCACU	0.827
AUGACCACAAGGGCCCCACCAUCACUUUGACCCAGAUUGUGUGACAUACACCUGAGAGGAAUUGAGGGAGUAUUGGUGUCUAGGUUGUCAUGUUUCUGUUUUGUGACACA	0.283
UGUGUUCUGUGCUUUACACUGACAGAACCUGGGUUUUCAGUUGGCAAUCAUGGAAAGCAUGUUGUGUGGCUCUGAUCCUAGUAUUUGGGAAACAGAGACAGAAAGGUUAG	1.69
AGCCCAGCCAUCAGCCCAGAUGACAGCGAUGAGGAGAACUGAGCGAACAGGGCGAAGAGCUGGUUAGGGUCAGACAACCUCGGUGGCCUGUGUGUCACUUCCCUCACCUC	0.416

Sample 3 — target: CCNB2, cyclin fold, Cln2 fusion (human); technique: yeast growth competition, sequencing; sample: yeast; setting: strong parent motif; relative to: not given; reading: higher = stronger binding
Starting sequence: MICAL3 docking peptide (human); LQLRRQLSFSEDS
Substitution	normalised enrichment score
E11T	1.85
Q6A	3.11
D12T	2.55
Q2D	2.61
L3M	1.66
E11Y	1.71
E11H	1.27
E11G	2.08
L7N	-0.164
Q6W	0.494
F9C	0.246
S10W	0.623
Q2H	3.09
R4D	-0.0235
S8N	1.62
Q2K	3.59
E11A	2.07
S8T	1.72

Sample 4 — technique: protein binding microarray; molecule type: double-stranded DNA, one strand shown; sample: in vitro; tested at: not given; relative to: not given; reading: higher = stronger binding
Target: Histone acetyltransferase KAT6A, winged helix 1, GST fusion (KAT6A, Homo sapiens, UniProt Q92794, residues 1-85)
Setting: 8-mer, flanks averaged, mean of 2 arrays, mostly near background
Target sequence (chain): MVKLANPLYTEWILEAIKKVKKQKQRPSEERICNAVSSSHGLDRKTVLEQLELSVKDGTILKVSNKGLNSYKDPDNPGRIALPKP
Sequence	E-score
GATCGTTA	0.0504
ATAAGCCG	0.209
CCCTTGCG	0.0487
AGATGCAT	-0.207
CGGCAGTC	0.223
TAGTGTAA	0.0291
ACCTCTTC	-0.0461
CGAAGCTC	-0.081
AAGCGGGG	0.0882
CGGGTCCC	0.353

Repeated from above (sample 2):
Sequence	RBNS enrichment (R)
ACCUACUAAGCAGAGCAAGGCCUGGGUAUCAAACAGUUCUGUGUUAACAGUUCCUAAAUUCUAAGGUCCUUGAAUUUGAAGGAAAGACCUUUAGGCCAACUCUGUCUUGG	0.381
UCAUGUACAUAUGGUAUAGAAACCAUGGAGUUAGGCACUUCCUGGAUUUUUUUUUUAUGAGAAAAAUACUGUAUUUAAAAUGUAAAAUAAACUUUUAAAAAGCAGGCACU	0.827
AUGACCACAAGGGCCCCACCAUCACUUUGACCCAGAUUGUGUGACAUACACCUGAGAGGAAUUGAGGGAGUAUUGGUGUCUAGGUUGUCAUGUUUCUGUUUUGUGACACA	0.283
UGUGUUCUGUGCUUUACACUGACAGAACCUGGGUUUUCAGUUGGCAAUCAUGGAAAGCAUGUUGUGUGGCUCUGAUCCUAGUAUUUGGGAAACAGAGACAGAAAGGUUAG	1.69
AGCCCAGCCAUCAGCCCAGAUGACAGCGAUGAGGAGAACUGAGCGAACAGGGCGAAGAGCUGGUUAGGGUCAGACAACCUCGGUGGCCUGUGUGUCACUUCCCUCACCUC	0.416
